Results from different studies.
A part holds a random share of what one study measured. Several values in a cell are separate wells, animals, samples, runs or records.
Sequence of UniProt Q13554 (whole entry, looked up): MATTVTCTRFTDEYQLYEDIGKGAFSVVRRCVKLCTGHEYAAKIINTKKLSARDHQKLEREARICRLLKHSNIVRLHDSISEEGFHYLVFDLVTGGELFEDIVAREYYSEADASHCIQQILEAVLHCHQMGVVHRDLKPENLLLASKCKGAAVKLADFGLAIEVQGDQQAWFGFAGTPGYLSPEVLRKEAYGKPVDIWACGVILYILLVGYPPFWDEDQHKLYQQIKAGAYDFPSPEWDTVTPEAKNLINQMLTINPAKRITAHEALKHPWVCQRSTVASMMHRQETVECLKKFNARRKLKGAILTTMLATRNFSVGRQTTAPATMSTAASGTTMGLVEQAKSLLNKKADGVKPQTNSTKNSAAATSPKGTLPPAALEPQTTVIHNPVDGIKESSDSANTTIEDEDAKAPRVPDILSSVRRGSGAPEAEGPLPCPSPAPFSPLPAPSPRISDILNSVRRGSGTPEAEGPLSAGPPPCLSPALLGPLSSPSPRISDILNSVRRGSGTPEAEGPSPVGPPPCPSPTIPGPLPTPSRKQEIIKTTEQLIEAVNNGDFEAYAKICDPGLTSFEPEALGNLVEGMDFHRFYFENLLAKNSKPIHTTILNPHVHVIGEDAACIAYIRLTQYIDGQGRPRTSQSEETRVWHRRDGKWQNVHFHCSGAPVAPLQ
Sequence of UniProt Q7L7X3 (whole entry, looked up): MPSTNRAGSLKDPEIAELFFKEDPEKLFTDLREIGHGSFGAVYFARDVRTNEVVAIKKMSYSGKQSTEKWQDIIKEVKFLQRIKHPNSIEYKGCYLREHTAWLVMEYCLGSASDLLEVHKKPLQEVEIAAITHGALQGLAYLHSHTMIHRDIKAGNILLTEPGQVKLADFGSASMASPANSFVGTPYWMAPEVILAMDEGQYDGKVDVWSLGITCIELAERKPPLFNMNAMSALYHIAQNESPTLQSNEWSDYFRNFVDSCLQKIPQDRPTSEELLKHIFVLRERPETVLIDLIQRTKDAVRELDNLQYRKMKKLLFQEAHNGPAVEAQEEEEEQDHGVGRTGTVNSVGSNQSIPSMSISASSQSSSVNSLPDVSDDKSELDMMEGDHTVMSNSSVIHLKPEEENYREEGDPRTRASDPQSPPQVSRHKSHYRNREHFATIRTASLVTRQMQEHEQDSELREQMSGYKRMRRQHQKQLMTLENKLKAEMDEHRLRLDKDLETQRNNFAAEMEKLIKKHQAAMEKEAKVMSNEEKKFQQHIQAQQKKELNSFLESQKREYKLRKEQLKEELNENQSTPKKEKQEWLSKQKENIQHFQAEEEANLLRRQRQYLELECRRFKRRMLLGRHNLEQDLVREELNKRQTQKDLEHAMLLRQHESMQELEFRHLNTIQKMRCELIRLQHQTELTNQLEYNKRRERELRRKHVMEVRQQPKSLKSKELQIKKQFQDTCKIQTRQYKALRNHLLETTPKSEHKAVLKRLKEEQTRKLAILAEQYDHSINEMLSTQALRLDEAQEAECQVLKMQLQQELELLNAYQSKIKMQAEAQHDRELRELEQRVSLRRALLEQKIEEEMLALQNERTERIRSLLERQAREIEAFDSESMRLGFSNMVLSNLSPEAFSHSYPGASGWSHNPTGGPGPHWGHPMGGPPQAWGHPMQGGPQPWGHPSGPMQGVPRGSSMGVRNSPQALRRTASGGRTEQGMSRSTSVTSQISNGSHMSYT
Sequence of UniProt P42336 (whole entry, unmodified, looked up): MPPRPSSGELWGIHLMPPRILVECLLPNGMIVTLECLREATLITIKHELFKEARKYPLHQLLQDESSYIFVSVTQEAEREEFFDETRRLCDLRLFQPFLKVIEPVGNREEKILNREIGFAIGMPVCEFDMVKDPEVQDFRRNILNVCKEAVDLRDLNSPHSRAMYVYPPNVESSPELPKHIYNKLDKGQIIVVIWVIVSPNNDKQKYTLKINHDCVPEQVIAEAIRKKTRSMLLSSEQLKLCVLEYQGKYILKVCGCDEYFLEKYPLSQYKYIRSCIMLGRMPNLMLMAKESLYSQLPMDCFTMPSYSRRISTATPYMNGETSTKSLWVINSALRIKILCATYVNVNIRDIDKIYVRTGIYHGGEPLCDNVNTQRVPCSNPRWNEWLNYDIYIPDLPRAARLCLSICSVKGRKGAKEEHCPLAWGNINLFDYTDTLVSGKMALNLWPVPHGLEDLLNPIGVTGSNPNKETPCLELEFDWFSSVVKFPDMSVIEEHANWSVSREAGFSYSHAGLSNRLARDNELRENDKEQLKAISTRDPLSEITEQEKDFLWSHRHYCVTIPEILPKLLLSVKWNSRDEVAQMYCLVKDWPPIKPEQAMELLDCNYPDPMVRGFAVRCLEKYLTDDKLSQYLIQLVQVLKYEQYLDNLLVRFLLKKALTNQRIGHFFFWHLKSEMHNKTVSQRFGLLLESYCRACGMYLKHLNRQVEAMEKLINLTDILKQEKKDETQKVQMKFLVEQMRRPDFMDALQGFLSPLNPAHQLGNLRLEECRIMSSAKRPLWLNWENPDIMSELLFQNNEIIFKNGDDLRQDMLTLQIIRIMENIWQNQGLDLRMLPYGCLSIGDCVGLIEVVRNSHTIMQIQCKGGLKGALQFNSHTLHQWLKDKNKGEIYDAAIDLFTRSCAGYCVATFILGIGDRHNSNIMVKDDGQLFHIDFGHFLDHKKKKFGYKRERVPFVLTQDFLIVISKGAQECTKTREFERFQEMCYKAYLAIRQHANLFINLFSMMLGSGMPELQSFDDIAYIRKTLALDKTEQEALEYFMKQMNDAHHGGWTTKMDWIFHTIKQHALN
Sequence of UniProt Q15759 (whole entry, looked up): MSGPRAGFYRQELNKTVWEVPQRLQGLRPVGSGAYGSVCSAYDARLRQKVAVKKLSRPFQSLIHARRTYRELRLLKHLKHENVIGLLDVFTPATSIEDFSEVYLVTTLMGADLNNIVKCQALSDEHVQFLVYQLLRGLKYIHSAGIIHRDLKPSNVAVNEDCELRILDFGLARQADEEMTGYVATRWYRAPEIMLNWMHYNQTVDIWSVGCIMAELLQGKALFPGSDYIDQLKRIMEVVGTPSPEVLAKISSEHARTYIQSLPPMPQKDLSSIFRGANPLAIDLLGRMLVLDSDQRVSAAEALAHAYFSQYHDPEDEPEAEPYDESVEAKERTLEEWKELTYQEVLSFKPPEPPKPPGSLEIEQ
Sequence of UniProt P54762 (whole entry, looked up): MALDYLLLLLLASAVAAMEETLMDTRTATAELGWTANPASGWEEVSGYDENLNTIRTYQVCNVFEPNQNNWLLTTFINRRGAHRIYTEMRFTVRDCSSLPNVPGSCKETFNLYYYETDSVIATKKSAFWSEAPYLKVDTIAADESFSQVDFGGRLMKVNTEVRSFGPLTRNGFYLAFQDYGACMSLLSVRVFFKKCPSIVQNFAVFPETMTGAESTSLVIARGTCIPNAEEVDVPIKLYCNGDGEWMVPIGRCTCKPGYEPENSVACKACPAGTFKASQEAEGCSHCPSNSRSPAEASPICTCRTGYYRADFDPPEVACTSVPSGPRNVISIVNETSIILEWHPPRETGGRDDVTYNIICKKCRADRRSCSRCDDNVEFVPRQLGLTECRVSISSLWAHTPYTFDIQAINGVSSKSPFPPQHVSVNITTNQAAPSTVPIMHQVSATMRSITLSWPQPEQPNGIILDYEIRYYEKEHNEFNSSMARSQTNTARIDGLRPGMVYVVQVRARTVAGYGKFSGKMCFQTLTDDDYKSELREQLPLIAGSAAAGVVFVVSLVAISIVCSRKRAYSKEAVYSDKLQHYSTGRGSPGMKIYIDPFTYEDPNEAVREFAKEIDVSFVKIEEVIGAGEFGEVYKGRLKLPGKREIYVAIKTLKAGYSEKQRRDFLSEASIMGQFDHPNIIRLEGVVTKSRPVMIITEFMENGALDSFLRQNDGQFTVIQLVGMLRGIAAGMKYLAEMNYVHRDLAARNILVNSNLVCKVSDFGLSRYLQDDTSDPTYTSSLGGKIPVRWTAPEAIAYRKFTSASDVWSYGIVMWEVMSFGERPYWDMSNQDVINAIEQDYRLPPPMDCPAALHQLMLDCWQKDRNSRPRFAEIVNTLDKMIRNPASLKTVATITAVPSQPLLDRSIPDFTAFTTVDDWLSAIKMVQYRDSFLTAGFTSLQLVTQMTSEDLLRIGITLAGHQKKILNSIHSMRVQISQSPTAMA
Sequence of UniProt Q92630 (whole entry, looked up): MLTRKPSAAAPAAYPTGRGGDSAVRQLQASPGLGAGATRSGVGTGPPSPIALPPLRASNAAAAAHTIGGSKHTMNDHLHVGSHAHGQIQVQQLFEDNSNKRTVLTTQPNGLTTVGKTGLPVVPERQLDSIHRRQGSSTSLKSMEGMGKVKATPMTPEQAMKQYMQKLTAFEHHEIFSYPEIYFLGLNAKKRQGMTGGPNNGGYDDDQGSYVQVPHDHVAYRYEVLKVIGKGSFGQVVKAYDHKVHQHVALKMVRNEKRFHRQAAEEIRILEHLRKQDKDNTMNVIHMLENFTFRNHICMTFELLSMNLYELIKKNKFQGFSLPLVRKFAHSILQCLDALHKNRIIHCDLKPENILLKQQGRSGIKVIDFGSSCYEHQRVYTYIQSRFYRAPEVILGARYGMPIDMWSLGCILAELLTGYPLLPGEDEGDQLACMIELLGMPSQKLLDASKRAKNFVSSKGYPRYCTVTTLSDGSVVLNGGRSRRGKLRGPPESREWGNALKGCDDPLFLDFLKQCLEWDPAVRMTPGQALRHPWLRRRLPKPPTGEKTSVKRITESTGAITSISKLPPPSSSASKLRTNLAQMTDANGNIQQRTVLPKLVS
Sequence of UniProt P06493 (whole entry, looked up): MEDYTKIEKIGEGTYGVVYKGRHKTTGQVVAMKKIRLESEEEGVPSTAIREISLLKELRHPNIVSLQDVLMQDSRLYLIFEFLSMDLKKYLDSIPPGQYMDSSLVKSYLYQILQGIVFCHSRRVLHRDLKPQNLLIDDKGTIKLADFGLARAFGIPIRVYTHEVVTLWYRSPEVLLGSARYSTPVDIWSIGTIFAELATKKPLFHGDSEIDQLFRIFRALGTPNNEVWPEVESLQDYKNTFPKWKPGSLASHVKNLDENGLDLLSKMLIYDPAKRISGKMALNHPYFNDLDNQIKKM

Set 1
Host: human
Matrix: microsomes or S9
Tested at: 2 µM
Time: 0.5 h
Quantity: remaining compound
Fc1cc(F)cc(-c2noc3ncnc(Nc4ccc(-c5ccno5)cc4)c23)c1: 26.4%
COc1cc(=O)[nH]cc1C(=O)N1CCOC(c2nc(C)cs2)C1 (stereo not shown): > 99%
Cc1cccc(-c2noc(-c3cn(CC(=O)Nc4cccc(C)c4C)c4nc(C)ccc4c3=O)n2)c1: 58.4%
CCCOCC1CC(n2cncn2)C(c2ccc(Cl)cc2)=NO1 (stereo not shown): 45.2%
CN(C)S(=O)(=O)c1cc2c(cc1N1CCN(c3ccccn3)CC1)Oc1ccccc1NC2=O: 0.694%
Cc1nn(C)c(-c2nc(-c3ccc(Br)o3)no2)c1Cl: 6.72%
O=C(CN(CCc1ccccc1)S(=O)(=O)c1ccc(Cl)cc1)Nc1ccc2c(c1)OCCO2: 7.97%
COc1ccc2c(c1)cc(C(=O)Nc1c(C)cccc1C)n2C: 39.3%
CC(=O)Oc1cc(OC(C)=O)c2c(c1)-c1coc3cc(OC(C)=O)cc(c13)C2=O: 0.00529%
CC(C)CN1C(=O)CCC[C@]12CN(Cc1ccnc(N3CCCC3)n1)C[C@H]2c1ccccc1: 0.0326%
O=S1(=O)c2cccc3cccc(c23)N1CCc1ccccc1: 83.7%
O=S(=O)(NCCn1c(-c2ccncc2)nc2ccccc21)c1ccc(Br)s1: 2.68%

Set 2
Structure (SMILES): CC(=O)O/N=C1/C(c2c(O)[nH]c3cc(Br)ccc23)=Nc2ccccc21
Read-out: enzyme activity
Action: inhibitor
Tested at: 0.5 µM
Reference: control
Quantity: remaining activity
MAPKAPK3 (Homo sapiens, UniProt Q16644): 105%
PDPK1 (Homo sapiens, UniProt O15530): 88.2%
SRMS (Homo sapiens, UniProt Q9H3Y6): 98%
Cyclin-dependent kinase 4, with cyclin D3 (CDK4, Homo sapiens, UniProt P11802): 86.2%
BLK (Homo sapiens, UniProt P51451): 25.6%
Cyclin-dependent kinase 1, with cyclin B (CDK1, Homo sapiens, UniProt P06493): 79.3%
EPHB4 (Homo sapiens, UniProt P54760): 92.2%
DYRK3 (Homo sapiens, UniProt O43781): 91.3%
CAMK2B (Homo sapiens, UniProt Q13554): 91.5%
Cyclin-dependent kinase 6, with cyclin D3 (CDK6, Homo sapiens, UniProt Q00534): 40.9%
HIPK4 (Homo sapiens, UniProt Q8NE63): 95.5%
PHKG1 (Homo sapiens, UniProt Q16816): 67.7%
TSSK2 (Homo sapiens, UniProt Q96PF2): 101%
ABL1 (Homo sapiens, UniProt P00519): 43.1%
RPS6KA6 (Homo sapiens, UniProt Q9UK32): 70%
MAP4K4 (Homo sapiens, UniProt O95819): 30.2%
HIPK2 (Homo sapiens, UniProt Q9H2X6): 99.1%
WNK3 (Homo sapiens, UniProt Q9BYP7): 93%
AXL (Homo sapiens, UniProt P30530): 88%
RPS6KA5 (Homo sapiens, UniProt O75582): 83.9%
EPHB1 (Homo sapiens, UniProt P54762): 99.9%
STK16 (Homo sapiens, UniProt O75716): 76.5%

Set 3
Cell line: mouse MPNST tumor cells
Method: high-content immunofluorescence imaging
Item: nuclear SOX9
Tested at: 10 µM
Time: 12 h
Notes: mean of 2 replicates
Reference: DMSO control
Reading: higher = more nuclear SOX9
Quantity: nuclear SOX9 intensity
CC(=O)OCC(=O)[C@@]12OC3(CCCC3)O[C@@H]1C[C@H]1[C@@H]3CCC4=CC(=O)C=C[C@]4(C)[C@@]3(F)[C@@H](O)C[C@@]12C: 77.2 % of DMSO
CCN1C(C)(C)CC(Oc2ccc(C(=O)Nc3ccc(NC(=O)Nc4cc(C(C)(C)C)on4)cc3)nc2)CC1(C)C: 136 % of DMSO
COc1cc2c(cc1OCCCN1CCCC1)N=C(N)C21CCC1: 131 % of DMSO and 145 % of DMSO
CC(C)Oc1ccc2c(=O)c(-c3ccccc3)coc2c1: 105 % of DMSO
CC(C)(C(=O)c1cccnc1)c1cccnc1: 97.8 % of DMSO and 94 % of DMSO
CN(C)CCn1cc(S(=O)(=O)c2cccc(F)c2)c2cccnc21: 104 % of DMSO
Nc1ccc(-c2nc3cc(Oc4ccc(Oc5ccc6[nH]c(-c7ccc(N)cc7)nc6c5)cc4)ccc3[nH]2)cc1: 211 % of DMSO
COc1ccc(CCCn2ncc3c2nc(N)n2nc(-c4ccco4)nc32)cc1: 104 % of DMSO
NCCc1ccc(O)c(O)c1: 95.2 % of DMSO and 88.8 % of DMSO
CCCC[C@@H](C=O)NC(=O)[C@H](CC(C)C)NC(=O)OCc1ccccc1: 98.2 % of DMSO
COc1c(C)cnc(Cn2cc(C#CCC(C)(C)O)c3c(Cl)nc(N)nc32)c1C: 59.6 % of DMSO
CCCCCN(CCCCC)C(=O)C(CCC(=O)O)NC(=O)c1ccc(Cl)c(Cl)c1 (stereo not shown): 99.8 % of DMSO

Set 4
Structure (SMILES): CCCOc1ccc([C@@H]2[C@@H](C(=O)O)[C@H](c3ccc4c(c3)OCO4)CN2CC(=O)Nc2c(CC)cccc2CC)cc1
Read-out: cell-free assay
Method: competition with immobilised ligand
Tested at: 1 µM
Quantity: remaining binding
SLK (Homo sapiens, UniProt Q9H2G2): 100%
EGFR (Homo sapiens, UniProt P00533, G719C): 98%
MYLK2 (Homo sapiens, UniProt Q9H1R3): 93%
RET (Homo sapiens, UniProt P07949, V804M): 94%
DAPK3 (Homo sapiens, UniProt O43293): 79%
PIK3CA (Homo sapiens, UniProt P42336, M1043I): 91%
TAOK1 (Homo sapiens, UniProt Q7L7X3): 100%
CDK17 (Homo sapiens, UniProt Q00537): 90%
DYRK2 (Homo sapiens, UniProt Q92630): 92%
MAP4K2 (Homo sapiens, UniProt Q12851): 98%
NIM1K (Homo sapiens, UniProt Q8IY84): 81%
BMPR2 (Homo sapiens, UniProt Q13873): 69%
ABL2 (Homo sapiens, UniProt P42684): 96%
MAPK11 (Homo sapiens, UniProt Q15759): 98%
Tyrosine-protein kinase JAK1, JH1 (JAK1, Homo sapiens, UniProt P23458): 100%
